Published values from different studies.
Parts stem from different laboratories: compare values within a part only. “And” joins repeats or separate records; there may be more than shown. Positions count from the first letter of the parent shown.
UniProt Q7L7X3, sequence (whole entry, looked up): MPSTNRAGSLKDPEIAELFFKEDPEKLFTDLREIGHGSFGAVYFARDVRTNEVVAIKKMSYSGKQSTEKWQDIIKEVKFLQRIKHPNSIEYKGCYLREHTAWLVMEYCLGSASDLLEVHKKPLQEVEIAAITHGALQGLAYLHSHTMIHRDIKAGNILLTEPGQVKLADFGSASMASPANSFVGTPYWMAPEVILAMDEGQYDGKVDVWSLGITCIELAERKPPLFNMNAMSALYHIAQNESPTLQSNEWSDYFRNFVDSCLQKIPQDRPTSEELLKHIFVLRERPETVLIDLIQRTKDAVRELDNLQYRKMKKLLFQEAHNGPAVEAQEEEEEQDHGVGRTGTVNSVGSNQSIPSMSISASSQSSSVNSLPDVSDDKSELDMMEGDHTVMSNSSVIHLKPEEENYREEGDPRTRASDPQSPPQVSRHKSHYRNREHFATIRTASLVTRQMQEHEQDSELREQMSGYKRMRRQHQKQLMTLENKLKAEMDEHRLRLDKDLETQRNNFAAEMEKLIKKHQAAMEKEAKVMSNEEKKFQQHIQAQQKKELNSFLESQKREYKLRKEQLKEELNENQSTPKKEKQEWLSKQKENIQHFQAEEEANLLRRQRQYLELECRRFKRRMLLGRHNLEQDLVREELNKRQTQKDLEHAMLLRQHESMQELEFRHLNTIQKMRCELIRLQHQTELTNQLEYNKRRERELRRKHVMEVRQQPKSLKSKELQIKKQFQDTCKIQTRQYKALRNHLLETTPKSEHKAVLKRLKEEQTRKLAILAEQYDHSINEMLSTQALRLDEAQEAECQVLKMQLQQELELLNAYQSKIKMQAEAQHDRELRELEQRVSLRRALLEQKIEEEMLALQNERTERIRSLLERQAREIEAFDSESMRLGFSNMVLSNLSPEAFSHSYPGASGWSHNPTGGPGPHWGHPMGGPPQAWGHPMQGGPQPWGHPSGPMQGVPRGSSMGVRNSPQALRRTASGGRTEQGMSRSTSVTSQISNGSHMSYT
UniProt P14616, sequence (whole entry, looked up): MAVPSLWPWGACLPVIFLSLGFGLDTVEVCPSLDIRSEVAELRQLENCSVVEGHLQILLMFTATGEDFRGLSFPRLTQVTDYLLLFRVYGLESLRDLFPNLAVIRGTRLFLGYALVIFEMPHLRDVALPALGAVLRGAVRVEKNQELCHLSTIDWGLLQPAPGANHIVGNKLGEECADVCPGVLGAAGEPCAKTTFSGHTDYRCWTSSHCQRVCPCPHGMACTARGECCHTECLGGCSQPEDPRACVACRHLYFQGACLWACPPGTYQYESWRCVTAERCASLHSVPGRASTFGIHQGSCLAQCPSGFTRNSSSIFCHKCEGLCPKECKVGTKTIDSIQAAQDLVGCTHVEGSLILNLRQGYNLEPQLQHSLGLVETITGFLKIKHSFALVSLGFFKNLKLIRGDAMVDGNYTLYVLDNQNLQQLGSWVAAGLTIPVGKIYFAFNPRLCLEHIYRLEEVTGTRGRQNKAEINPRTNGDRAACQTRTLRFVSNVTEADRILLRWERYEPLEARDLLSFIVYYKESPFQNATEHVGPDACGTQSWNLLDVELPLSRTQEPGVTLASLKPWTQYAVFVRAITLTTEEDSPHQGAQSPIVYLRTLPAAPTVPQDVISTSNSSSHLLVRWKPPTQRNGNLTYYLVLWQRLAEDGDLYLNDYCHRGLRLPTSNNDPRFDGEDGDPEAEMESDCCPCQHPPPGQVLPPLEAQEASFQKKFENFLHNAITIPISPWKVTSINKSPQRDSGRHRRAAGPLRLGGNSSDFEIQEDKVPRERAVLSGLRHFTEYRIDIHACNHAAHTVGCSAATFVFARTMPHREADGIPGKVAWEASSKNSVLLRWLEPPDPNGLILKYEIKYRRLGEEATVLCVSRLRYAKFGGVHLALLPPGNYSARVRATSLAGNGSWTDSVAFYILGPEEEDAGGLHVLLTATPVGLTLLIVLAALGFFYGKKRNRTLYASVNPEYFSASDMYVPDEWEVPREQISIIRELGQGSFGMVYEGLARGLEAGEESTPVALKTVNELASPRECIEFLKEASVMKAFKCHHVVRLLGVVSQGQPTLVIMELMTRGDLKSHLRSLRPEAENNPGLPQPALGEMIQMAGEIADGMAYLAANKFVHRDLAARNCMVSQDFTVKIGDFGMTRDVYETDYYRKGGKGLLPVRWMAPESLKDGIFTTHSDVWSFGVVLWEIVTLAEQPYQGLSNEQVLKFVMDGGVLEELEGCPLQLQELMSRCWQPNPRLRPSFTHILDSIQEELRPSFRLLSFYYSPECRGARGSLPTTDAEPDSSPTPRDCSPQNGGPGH
UniProt Q6XUX3, sequence (whole entry, looked up): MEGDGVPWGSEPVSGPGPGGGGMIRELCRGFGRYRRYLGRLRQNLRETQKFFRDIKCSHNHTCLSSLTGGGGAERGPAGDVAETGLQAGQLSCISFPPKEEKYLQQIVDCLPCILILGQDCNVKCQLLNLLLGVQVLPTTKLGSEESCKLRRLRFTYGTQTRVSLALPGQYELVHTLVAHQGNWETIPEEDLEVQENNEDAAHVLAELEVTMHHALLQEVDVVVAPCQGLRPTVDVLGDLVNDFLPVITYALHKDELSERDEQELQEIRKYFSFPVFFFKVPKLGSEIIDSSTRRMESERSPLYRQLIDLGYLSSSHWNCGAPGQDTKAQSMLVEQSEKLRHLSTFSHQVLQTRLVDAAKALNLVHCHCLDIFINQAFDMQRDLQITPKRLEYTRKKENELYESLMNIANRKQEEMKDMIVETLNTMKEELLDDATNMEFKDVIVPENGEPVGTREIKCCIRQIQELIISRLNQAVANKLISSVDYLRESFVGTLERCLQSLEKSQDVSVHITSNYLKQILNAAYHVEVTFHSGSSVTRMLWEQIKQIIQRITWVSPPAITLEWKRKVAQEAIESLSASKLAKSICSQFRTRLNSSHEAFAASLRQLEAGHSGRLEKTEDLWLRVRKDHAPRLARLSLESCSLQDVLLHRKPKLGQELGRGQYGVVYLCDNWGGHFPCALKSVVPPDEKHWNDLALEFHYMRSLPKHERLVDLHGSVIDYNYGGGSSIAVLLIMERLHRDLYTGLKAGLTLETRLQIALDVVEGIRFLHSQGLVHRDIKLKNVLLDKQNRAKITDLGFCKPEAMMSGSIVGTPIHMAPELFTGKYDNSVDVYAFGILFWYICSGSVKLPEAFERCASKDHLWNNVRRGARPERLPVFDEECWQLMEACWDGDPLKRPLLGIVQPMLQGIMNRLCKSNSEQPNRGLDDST

Set 1 — read-out: binding; method: phage display NGS; molecule type: peptide; baseline: input library
Target: UDP-N-acetylglucosamine--peptide N-acetylglucosaminyltransferase 110 kDa subunit (OGT, Homo sapiens, UniProt O15294)
UniProt O15294, sequence (whole entry, looked up): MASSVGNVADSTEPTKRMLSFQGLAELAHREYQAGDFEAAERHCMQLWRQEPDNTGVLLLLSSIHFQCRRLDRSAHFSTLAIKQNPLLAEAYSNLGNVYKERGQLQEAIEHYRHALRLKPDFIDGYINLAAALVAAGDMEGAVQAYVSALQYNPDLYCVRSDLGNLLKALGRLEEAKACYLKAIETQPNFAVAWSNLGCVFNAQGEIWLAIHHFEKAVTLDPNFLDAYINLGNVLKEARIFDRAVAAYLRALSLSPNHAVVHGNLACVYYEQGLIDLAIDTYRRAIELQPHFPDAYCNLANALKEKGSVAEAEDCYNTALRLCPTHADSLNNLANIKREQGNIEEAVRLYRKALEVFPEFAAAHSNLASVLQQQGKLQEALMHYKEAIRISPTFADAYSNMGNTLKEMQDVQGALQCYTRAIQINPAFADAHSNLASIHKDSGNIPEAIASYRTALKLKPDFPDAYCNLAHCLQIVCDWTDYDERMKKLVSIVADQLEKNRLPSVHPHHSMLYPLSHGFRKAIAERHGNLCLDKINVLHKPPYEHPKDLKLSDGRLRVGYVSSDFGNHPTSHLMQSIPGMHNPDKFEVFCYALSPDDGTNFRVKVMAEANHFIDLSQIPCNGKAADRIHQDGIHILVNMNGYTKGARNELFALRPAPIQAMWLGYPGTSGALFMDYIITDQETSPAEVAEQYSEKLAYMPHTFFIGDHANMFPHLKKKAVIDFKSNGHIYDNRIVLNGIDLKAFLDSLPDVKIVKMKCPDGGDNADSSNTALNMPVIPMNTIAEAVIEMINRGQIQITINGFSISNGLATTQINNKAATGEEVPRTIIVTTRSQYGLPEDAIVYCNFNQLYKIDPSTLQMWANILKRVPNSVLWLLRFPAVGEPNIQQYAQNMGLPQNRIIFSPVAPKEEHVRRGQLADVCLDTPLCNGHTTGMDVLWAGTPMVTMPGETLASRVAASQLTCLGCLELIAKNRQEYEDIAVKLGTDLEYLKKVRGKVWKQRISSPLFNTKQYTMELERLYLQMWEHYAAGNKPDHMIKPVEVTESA
| Sequence | minimum log2 enrichment ratio |
| --- | --- |
| WMPVNYNGKHHSHTV | 5.89 |
| HIGRHTGPHYYNIVH | 1.93 |
| FQPSYQIEYSRVING | 3.17 |
| HLSAMHPELHYHGNH | 3 |
| STDWSPFTPMYQIKA | 4.72 |
| HDLHSKHGNTQPHDH | 1.63 |
| IDLSPKYQIVLNATD | 3.31 |
| FPYLPQYQISPDYFS | 2.23 |

Set 2 — read-out: enzyme activity; mode: inhibitor; tested at: 0.5 µM; baseline: control
Compound: COc1ccc2c(c[n+](C)c3c4cc5c(cc4ccc23)OCO5)c1OC
| target | remaining activity |
| --- | --- |
| PLK1 (Homo sapiens, UniProt P53350) | 93.6% |
| TAOK1 (Homo sapiens, UniProt Q7L7X3) | 105% |
| INSRR (Homo sapiens, UniProt P14616) | 91.8% |
| PDGFRB (Homo sapiens, UniProt P09619) | 93.5% |
| DSTYK (Homo sapiens, UniProt Q6XUX3) | 86.4% |

Set 3 — target: vanadate, free oxyanion; method: microfluidic competitive inhibition; sample: in vitro, cell-free expressed; tested at: not given; reading: lower = stronger binding
Notes: derived from inhibition constants, unchanged parent 676 nM
Starting sequence: PafA, mature enzyme, eGFP fusion (Elizabethkingia meningoseptica, UniProt Q9KJX5); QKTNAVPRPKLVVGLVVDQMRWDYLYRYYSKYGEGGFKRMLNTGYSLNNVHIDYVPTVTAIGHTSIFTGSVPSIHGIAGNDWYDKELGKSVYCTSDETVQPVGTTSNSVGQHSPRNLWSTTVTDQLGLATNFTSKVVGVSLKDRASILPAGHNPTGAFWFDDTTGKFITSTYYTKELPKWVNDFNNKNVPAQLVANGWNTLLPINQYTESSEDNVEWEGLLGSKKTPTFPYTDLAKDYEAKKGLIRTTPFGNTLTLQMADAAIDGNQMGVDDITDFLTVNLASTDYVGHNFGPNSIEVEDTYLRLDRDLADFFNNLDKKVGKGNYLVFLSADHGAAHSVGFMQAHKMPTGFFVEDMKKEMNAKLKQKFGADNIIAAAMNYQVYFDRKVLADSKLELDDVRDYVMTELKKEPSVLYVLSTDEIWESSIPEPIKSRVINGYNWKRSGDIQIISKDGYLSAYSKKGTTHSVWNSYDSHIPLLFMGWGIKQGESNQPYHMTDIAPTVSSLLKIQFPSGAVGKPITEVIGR
| Substitution | oxyanion analog dissociation constant |
| --- | --- |
| R115V | 601 nM |
| G138V | 833 nM |
| L201G | 526 nM |
| L329V | 1.99 µM |
| N205G | 794 nM |
| Y325V | 820 nM |
| N182G | 869 nM |
| I204V | 777 nM |

Set 4 — organism: Cryptosporidium parvum; method: time-kill; cell line: HCT-8; strain: nanoluciferase-expressing; reading: higher = more parasites
Structure (SMILES): CNC(=O)c1ccc(-c2cnn3ccc(C(=O)N(C)c4ccc(Cl)c(C(=O)OC)c4)cc23)cc1
| tested at | time | parasite luminescence |
| --- | --- | --- |
| 0.7407 µM | 48 h | 24900 RLU and 26700 RLU |
| 0.00914 µM | 4 h | 94300 RLU and 92200 RLU |
| 0.02743 µM | 48 h | 26900 RLU and 22500 RLU |
| 0.00914 µM | 24 h | 93200 RLU and 76800 RLU |
| 0.00305 µM | 48 h | 238000 RLU and 279000 RLU |
| 0.00102 µM | 4 h | 82300 RLU and 90400 RLU |

Set 5 — read-out: binding; method: radioligand binding; tested at: 10 µM
Target: Sodium-dependent noradrenaline transporter (SLC6A2, Homo sapiens, UniProt P23975)
UniProt P23975, sequence (whole entry, looked up): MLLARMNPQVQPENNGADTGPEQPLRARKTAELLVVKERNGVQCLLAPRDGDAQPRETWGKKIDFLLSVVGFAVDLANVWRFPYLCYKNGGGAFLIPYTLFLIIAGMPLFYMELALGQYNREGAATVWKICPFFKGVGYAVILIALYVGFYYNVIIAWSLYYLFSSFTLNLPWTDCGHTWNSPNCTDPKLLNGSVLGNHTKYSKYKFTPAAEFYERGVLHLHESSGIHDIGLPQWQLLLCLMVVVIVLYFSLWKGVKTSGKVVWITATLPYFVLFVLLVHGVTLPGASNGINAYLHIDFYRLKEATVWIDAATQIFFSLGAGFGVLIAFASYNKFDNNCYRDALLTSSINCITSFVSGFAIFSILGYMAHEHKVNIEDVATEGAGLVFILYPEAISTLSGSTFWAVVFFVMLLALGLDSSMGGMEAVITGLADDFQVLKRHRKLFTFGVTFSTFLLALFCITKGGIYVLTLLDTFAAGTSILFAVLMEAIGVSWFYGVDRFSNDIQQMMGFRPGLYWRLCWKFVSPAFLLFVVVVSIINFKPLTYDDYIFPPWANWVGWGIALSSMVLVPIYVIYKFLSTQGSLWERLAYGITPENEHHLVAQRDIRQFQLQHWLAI
| SMILES | inhibition |
| --- | --- |
| O=C(Nc1cnc(Oc2ccc(F)cc2)nc1)N1CCc2ncccc2[C@@H]1c1ccc(F)cc1 | 10.2% |
| COc1cc(-c2cn(C3CCc4ccccc4N(CC(F)(F)F)C3=O)nn2)ccc1-n1ccc(C)n1 (stereo not drawn) | 49.4% |
| CC(C)CC(=O)N1CCc2nc(-c3ccc(Br)cc3)nc(N(C)Cc3ccccc3)c2C1 | -16.6% |
| CNC(=O)c1ccc(Nc2ncc(C(F)(F)F)c(NCc3nccnc3N(C)S(C)(=O)=O)n2)cc1 | 7.81% |
| CNC(=O)c1cc(C(=O)NC2CC2)cn(Cc2ccccc2)c1=O | -11.6% |
| O=C(NC[C@@H]1[C@H]2CN(C(=O)OCc3cc(C(F)(F)F)cc(C(F)(F)F)c3)C[C@@H]12)c1ccc2[nH]nnc2c1 | 15.5% |
| Cc1c[nH]c2nccc(Oc3c(F)cc(Nc4cc(Cl)nc(N)n4)cc3F)c12 | -19.2% |
| CC(=O)Nc1c(F)cc(C(=O)N[C@H]2CC[C@H](O)CC2)cc1O[C@@H](C)c1ccccc1 | -0.92% |
| CC[C@H](CC(=O)O)n1c(=O)c2ncccc2n(Cc2cn(C)c3cc(C)cc(C)c23)c1=O | 31.5% |
| Nc1c(C(=O)NCc2ccc(C(=O)NCCCC3CCCCC3)cc2)cnn1-c1ccccc1 | 13.5% |
| CC(C)(O)c1cncc(-c2nc3ccc(F)cc3n2C2CC2)c1 | 2.3% |
| O=C(O)c1cc(-c2ccc(C3CCNCC3)cc2)c2ccc(-c3ccc(C(F)(F)F)cc3)cc2c1 | 23.6% |
| Cc1nc(N2CC[C@@H](O)C2)ncc1-c1cc(C(F)(F)F)cc2[nH]ncc12 | 36.9% |
| Cc1cc(-n2nc(Cc3cc(F)cc(C(F)(F)F)c3)nc2C)ccc1C(N)=O | -6.7% |
| CC(=O)N1CCC(c2ccc(C(=O)NC(=N)N)cc2C(F)(F)F)CC1 | 28.6% |
| COCc1nc2cnc3cc(-c4c(C)noc4C)c(OC[C@H]4CCNC4)cc3c2n1[C@H](C)c1ccccc1 | 34.5% |
| CN1C(=O)[C@@H](N2CCc3c(nn(Cc4ccccc4)c3Br)C2=O)COc2ccccc21 | -7.47% |
| CC(=O)c1c(NS(C)(=O)=O)c2cc(-c3ccc(Cl)cc3)c(-c3ccc(Cl)cc3Cl)nc2n(C)c1=O | 20.2% |
| CCOCCn1cc(C(=O)Nc2ccc(-n3nc(-c4cccnc4)cc3C(F)(F)F)cn2)ccc1=O | -7.51% |
| CCOC(=O)c1cc2cc(-c3cc(C(=O)NCc4ccc(C(=O)O)cc4)nn3C)ccc2[nH]1 | -21.1% |
| O=C(Nc1cccnn1)N1CC(CC=Cc2cncc(Oc3ccc(C(F)(F)F)cn3)n2)C1 | -1% |
| CC(=O)Nc1nc(CN2CCC[C@H](Cc3cc(C)nc(C)c3)C2)cs1 | 17.8% |
| CC1=C(C#N)C(c2ccc3c(c2)c(NC(=O)c2ccccc2C)nn3C)C(C#N)=C(C)N1 | 2.85% |
| C[C@H](NC(=O)c1cnc2n1[C@](C)(Cc1ccc(C#N)cc1)C(=O)N2c1cc(Cl)c(F)c(Cl)c1)C(=O)NC1(c2ccccn2)CC1 | -2.81% |
| Cc1nccc(COC(=O)N2C[C@@H]3[C@@H](CNC(=O)c4ccc5[nH]nnc5c4)[C@@H]3C2)n1 | -7.15% |

Single results of other studies
| Structure (SMILES) | target or system | system | conditions | how to read | quantity | value |
| --- | --- | --- | --- | --- | --- | --- |
| CCN1CC2(COC)CCC(OC)C34C5CC6(O)C(OC)CC(OC(C)=O)(C5C6C(=O)c5ccc(OC)cc5)C(C(OC)C23)C14 (stereo not drawn) | A-375 | – | 100 µM, 18 h | – | viability | 84.1% |
| CO[C@@H]1[C@@H](OC(N)=O)[C@@H](O)[C@H](Oc2ccc3c(O)c(NC(=O)c4ccc(O)c(CC=C(C)C)c4)c(=O)oc3c2C)OC1(C)C | RPE-1 wild type | – | 50 µM, unit not given | baseline: untreated | clonogenic survival | 1.17 and 0.871 and 1.15 |
| C[C@@H]1C[C@@H]([C@H](O)CC2CC(=O)NC(=O)C2)C(=O)[C@@H](C)C1 | A-375 | – | 100 µM, 18 h | – | viability | 77% |
| COc1ccc(-c2c(Nc3ccccn3)[nH]c3c(C4=CCCCC4)c(-c4ccccc4)nn3c2=O)cc1 | – | patients with advanced malignancies | oral, treatment-emergent adverse events | – | back pain incidence | 10% |
| CC(C)(C)NC(=O)c1cncn1C(c1ccc(Cl)cc1)c1ccc(Cl)cc1 | – | human, microsomes or S9 | 2 µM, 0.5 h | – | remaining compound | 42.5% |

For quick reference, copied from above (set 3):
| Substitution | oxyanion analog dissociation constant |
| --- | --- |
| L201G | 526 nM |
| L329V | 1.99 µM |
| N205G | 794 nM |
| Y325V | 820 nM |
